# Measured values pooled from the literature.
# Compare with care: the assays were run in different laboratories. “And” joins repeats or separate records; there may be more than shown. ± gives the spread as reported.
# T1: riboswitch RNA, fused to Pepper aptamer; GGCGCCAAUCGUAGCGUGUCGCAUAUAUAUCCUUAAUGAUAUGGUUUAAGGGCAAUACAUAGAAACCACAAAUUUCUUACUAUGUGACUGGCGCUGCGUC
# Chain of UniProt Q86TW2 (whole entry, looked up): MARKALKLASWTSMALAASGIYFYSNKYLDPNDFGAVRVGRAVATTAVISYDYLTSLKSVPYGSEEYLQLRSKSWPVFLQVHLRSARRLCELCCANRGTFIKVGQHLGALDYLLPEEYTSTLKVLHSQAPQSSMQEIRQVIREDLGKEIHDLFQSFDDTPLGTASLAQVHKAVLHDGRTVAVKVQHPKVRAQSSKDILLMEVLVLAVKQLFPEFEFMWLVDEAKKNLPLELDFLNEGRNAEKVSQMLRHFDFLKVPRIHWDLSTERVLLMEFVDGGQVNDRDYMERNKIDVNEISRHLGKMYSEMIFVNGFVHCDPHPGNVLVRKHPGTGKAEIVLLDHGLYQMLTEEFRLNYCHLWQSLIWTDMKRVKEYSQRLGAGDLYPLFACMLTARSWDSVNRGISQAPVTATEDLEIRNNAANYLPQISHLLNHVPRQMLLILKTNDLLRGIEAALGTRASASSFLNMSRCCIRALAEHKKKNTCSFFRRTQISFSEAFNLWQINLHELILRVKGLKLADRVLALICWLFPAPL
# Chain of UniProt P00921 (whole entry, looked up): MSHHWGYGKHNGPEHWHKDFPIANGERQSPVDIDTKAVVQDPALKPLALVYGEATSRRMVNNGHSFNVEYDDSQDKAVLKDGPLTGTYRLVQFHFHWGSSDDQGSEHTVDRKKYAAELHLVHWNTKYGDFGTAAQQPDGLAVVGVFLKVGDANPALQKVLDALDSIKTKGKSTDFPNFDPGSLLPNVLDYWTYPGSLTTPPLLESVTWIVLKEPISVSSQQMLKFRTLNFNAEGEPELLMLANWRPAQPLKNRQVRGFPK
# Chain of UniProt P55210 (whole entry, looked up): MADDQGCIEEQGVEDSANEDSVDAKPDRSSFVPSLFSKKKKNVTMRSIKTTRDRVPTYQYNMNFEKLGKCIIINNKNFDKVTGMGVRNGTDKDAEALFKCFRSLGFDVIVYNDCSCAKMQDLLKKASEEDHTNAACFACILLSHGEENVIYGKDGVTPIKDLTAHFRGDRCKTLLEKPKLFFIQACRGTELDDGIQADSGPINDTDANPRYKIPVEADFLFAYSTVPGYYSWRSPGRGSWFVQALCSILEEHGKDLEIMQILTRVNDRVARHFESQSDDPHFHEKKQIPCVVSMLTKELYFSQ
# Chain of UniProt Q9Y3A3 (whole entry, looked up): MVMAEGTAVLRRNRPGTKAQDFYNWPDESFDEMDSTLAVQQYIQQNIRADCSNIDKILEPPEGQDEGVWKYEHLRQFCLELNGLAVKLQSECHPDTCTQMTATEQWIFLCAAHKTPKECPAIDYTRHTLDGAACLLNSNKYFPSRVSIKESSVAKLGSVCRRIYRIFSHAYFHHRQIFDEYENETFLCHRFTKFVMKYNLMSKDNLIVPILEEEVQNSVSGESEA
# Chain of UniProt P34972 (whole entry, looked up): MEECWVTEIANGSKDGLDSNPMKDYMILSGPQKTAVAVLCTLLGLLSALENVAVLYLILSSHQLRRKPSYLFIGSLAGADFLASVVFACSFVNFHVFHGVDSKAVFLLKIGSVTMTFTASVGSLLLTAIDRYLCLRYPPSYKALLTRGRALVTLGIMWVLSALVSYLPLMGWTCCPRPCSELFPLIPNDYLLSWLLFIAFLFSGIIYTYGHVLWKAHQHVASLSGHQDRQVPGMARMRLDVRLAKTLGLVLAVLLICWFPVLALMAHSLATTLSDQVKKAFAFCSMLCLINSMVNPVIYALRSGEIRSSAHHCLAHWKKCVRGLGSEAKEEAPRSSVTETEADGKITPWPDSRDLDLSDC
# Chain of UniProt Q00987 (whole entry, unmodified, looked up): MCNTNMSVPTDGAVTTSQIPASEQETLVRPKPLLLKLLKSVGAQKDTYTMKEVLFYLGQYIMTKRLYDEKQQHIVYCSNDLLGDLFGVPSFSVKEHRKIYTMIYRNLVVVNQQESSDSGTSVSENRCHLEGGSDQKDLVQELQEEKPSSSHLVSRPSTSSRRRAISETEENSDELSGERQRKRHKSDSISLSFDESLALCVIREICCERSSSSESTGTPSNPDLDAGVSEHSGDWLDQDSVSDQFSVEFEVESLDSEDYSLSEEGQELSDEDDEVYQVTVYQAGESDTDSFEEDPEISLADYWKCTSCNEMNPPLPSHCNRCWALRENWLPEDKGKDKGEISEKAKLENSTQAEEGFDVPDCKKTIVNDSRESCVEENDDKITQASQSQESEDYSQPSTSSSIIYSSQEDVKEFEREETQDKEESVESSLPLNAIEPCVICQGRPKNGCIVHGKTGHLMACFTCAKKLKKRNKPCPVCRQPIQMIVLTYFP
# Chain of UniProt P19491 (whole entry, looked up): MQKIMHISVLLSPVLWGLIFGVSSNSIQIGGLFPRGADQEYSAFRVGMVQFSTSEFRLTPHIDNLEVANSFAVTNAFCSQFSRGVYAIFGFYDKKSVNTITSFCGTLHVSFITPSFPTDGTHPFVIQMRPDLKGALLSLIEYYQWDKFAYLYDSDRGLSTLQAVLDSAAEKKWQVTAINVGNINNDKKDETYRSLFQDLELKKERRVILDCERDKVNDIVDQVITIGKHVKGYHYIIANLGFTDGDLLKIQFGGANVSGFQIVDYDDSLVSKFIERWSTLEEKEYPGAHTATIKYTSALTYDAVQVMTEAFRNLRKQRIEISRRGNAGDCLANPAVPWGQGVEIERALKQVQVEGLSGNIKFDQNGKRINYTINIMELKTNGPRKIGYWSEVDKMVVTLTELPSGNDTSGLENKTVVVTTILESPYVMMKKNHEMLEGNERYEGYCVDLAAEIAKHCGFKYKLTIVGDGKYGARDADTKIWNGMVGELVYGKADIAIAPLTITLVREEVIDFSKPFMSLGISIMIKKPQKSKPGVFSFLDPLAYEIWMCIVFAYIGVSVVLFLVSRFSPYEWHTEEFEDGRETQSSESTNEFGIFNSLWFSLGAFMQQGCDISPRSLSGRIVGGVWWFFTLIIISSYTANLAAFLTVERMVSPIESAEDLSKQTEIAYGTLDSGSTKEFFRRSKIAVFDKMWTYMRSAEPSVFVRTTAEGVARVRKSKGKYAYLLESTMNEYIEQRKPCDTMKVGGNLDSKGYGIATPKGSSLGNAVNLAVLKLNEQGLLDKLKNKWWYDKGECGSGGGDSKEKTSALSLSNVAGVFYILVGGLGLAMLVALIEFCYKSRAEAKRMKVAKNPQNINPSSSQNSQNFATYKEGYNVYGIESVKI
# Chain of UniProt P32241 (whole entry, looked up): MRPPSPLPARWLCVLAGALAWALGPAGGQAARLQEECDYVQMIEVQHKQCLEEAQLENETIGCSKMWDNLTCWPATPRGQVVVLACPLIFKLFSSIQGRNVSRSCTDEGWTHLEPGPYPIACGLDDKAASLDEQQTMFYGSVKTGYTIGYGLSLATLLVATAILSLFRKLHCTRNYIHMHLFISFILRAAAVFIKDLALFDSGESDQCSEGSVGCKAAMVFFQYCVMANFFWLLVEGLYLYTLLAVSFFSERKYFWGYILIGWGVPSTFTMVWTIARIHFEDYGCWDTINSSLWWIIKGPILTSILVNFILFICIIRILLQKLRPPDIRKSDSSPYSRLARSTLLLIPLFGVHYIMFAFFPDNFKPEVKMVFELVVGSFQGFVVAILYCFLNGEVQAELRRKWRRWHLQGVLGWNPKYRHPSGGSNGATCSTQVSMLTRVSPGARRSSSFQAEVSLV
# Chain of UniProt Q9HB29 (whole entry, looked up): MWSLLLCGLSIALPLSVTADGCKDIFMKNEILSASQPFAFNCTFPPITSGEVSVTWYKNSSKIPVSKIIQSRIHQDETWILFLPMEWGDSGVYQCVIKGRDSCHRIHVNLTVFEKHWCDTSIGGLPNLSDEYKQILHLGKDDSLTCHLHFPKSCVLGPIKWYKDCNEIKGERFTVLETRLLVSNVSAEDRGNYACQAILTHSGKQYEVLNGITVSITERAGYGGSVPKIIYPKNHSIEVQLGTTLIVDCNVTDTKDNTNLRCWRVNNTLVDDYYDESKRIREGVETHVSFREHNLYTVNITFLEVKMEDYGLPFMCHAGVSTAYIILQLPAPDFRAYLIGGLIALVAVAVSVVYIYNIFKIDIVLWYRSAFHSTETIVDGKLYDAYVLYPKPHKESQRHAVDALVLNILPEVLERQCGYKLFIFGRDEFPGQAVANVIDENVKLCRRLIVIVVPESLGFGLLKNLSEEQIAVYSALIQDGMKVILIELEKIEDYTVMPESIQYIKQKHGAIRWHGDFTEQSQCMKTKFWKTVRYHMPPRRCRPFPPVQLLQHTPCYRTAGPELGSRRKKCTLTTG
SMILES,target,test,test system,conditions,scale,endpoint,result
CC1=C(/C=C/C(C)=C\C=C\C(C)=C\C=O)C(C)(C)CCC1,"Rhodopsin (RHO, Homo sapiens, UniProt P08100, T17M)","ER retention, co-localization with calnexin",COS-7 transfected T17M,"10 µM, multinucleated cells",,Pearson correlation coefficient,0.456 ± 0.02
O=C(N[C@@H](Cn1cc(-c2ccc(F)cc2F)nn1)C(=O)O)OCC1c2ccccc2-c2ccccc21,"MDM2 (Homo sapiens, UniProt Q00987)","thermal stability, DSF",,30 µM,,ΔTm,3.38 °C
Cc1ccc(-n2ncc3cc(NC(=O)C4CC4)ccc32)cc1,human kinase panel,"binding, KINOMEscan",,"10000 nM, %Ctrl below 1",,number of kinases hit,0
O=C(O)Cc1cc2c(cc1C(=O)c1ccccc1Br)OCO2,"Gria2 (Rattus norvegicus, UniProt P19491)",whole-cell patch clamp,HEK-293T,"concentration not given, added: glutamate",,deactivation time constant,5.9 ± 0.3 ms
CC(=O)N[C@H](C(=O)N[C@@H](CCC(=O)O)C(=O)N[C@@H](C)C(=O)N[C@@H](CC(=O)O)C(=O)COC(=O)c1c(C)cccc1C)C(C)C,"Caspase-7 (CASP7, Homo sapiens, UniProt P55210)","enzyme activity, inhibitor",,,,kinact/KI,47800 M⁻¹ s⁻¹
NC(=O)c1cc(-c2ccc3c(c2)OCCO3)n(-c2ccccc2)n1,"Genome polyprotein, NS2B-NS3 protease (dengue virus type 2, UniProt P29990)","enzyme activity, fluorogenic AMC substrate",,50 µM,,inhibition,21%
Nc1nc2c(ncn2[C@@H]2O[C@H](CO)C[C@H]2O)c(=O)[nH]1,"T1, riboswitch RNA, fused to Pepper aptamer",fluorescence,,5 µM,,binding,binds weakly
O=C1c2sc(-c3ccc(N4CCC(CO)CC4)nc3F)nc2CCN1c1cccnc1,"VIPR1 (Homo sapiens, UniProt P32241)","ligand displacement, radioligand",,1 µM,,inhibition,4%
CN(C)c1ccc2c(c1)C(=O)N(Cc1ccc(S(N)(=O)=O)cc1)C2=O,"CA2 (Bos taurus, UniProt P00921)",binding,,"2 µM, pH 7.2",relative to: without protein,fluorescence turn-on,15.1 fold
N[C@H]1CC[C@H](Nc2nccc(-c3cccnc3Oc3ccc(NC(=O)NC4CC4)c4ccccc34)n2)CC1,"ADCK1 (Homo sapiens, UniProt Q86TW2)",kinobead competition pulldown,HEK293/HCT116 lysate mixture,"10 µM, 1 h, 4 °C",lower = stronger competition,log2 LFQ intensity,20.8 and 18.6 and 20.3 and 18.9
O=C1CCC(N2C(=O)c3cccc4c(Cc5cnn(C6CCN(C(=O)C7(O)CCC7)CC6)c5)ccc2c34)C(=O)N1 (centres unmarked),"Cereblon/Ikaros (Homo sapiens, UniProt Q13422+Q96SW2)","protein level, degrader, western blot",NCI-H929,"100 pM, 4 h",,remaining activity,64.6%
CCCCCCCCCCCCC/C=C/C=O,"MOB4 (Homo sapiens, UniProt Q9Y3A3)",competitive isoTOP-ABPP,"proteome, soluble, MDA-MB-231","100 µM, 60 min, added: iodoacetamide probe","relative to: DMSO over compound-treated, higher = stronger cysteine blockade",isoTOP-ABPP competition ratio,1.2
CCOC(=O)C(CC)(CCCSCCCCCCNC(=O)OC(C)(C)C)NC(=O)c1ccc(C2CC2)c(Cc2ccc(F)cc2)n1 (centres unmarked),"CNR2 (Homo sapiens, UniProt P34972)",radioligand binding,,,relative to: CB1 over CB2 (human),Ki ratio,10
CC(C)[C@@H]1NC(=O)[C@H](Cc2ccccc2)NC(=O)CSC[C@@H](C(N)=O)NC(=O)[C@H](CCC(=O)O)NC(=O)[C@H](CO)NC(=O)[C@H](Cc2c[nH]c3cccc(Cl)c23)NC(=O)[C@H](C2CCCCC2)NC(=O)[C@H](C(C)C)NC(=O)[C@H](Cc2ccc(O)cc2)NC(=O)[C@H](CC(=O)O)NC(=O)[C@H](Cc2c[nH]c3ccccc23)NC(=O)[C@H](Cc2ccc(N)nc2)NC(=O)[C@H](Cc2c[nH]c3ccc(Cl)cc23)NC(=O)[C@H](CCC(=O)O)NC1=O,"Interleukin-1 receptor-like 2 (IL1RL2, Homo sapiens, UniProt Q9HB29)","reporter gene (SEAP), inhibitor, HEK-Blue IL-36R reporter",HEK-Blue IL-36R cells,"1.23 µM, 6 h, added: IL-36γ 3 ng/mL",,remaining activity,79.6%

# Excerpt of the above:
SMILES,target,test,test system,conditions,scale,endpoint,result
O=C1c2sc(-c3ccc(N4CCC(CO)CC4)nc3F)nc2CCN1c1cccnc1,"VIPR1 (Homo sapiens, UniProt P32241)","ligand displacement, radioligand",,1 µM,,inhibition,4%
